Experimental data of several laboratories.
± gives the spread as reported.
Method: steady-state kinetics
B1: sacB Y421F (Priestia megaterium, UniProt D5DC07); chain KGNDSKDFNNSYGISHITRDNMVKIPQQQNSDQFKVPAFDESTIKNIASAKGKNASGNTIDLDVWDSWPLQNADGTVATYHGYQIVFALAGDPKDSNDTSVYLFYKKAGDKSIDSWKNAGRVFKDSDKFVPNDPHLKNQTQEWSGSGTLTKDGKVRLFYTDYSGKQYGKQTLTTAQVNMSQPNDNTLKVDGVEDYKSIFDGDGKIYQTVQQFIDEGGYDTGDNHTLRDPHYIEDNGHKYLVFEANTGTEDGYQGEDSLYNRAYYGGNNPFFQSEKKKLLEGSNKEKASLANGALGIIELNDDYTLKKVMKPLITSNTVTDEIERANIFKKDGKWYLFTDSRGSKMTIDGIGQDDVYMLGYVSNTLTGKYKPLNDTGLVLHMDLDPNDKTFTFSHFAVPQTKGDNVVITSYMTNRGFYEDNHSTFAPSFLVNIDGSKTSVVKDRVLEQGQLTVDED
B2: enzyme (Enterococcus faecalis, UniProt Q836D9); chain MKKILTYGTFDLLHYGHINLLKKAKQQGDYLIVGLSTDAFNLEKKKQSYFSYEKRKQLLEAIRYVDLVIPETSWKQKVSDIAEFKIDTLVMGDDWQGAFDFLEVETTAKVLYLPRTPEVSTTQIKKELYYSE
B3: STM4540 (Salmonella enterica, UniProt Q8ZJX7); chain MLGFNQDEYLTSAREIIAARQKAEQVADEIYQAGFSSLFFASVGGSLAPMMAINEFAKELTTLPVYVEQAAELIHKGNKRLNKDSVVITLSKSGDTKESVAIAEWCKAQGIRVVAITKNADSPLAQAATWHIPMRHKNGVEYEYMLLYWLFFRVLSRNNEFASYDRFASQLEILPANLLKAKQKFDPQADAIASRYHNSDYMMWVGGAEMWGEVYLFSMCILEEMQWKRTRPVSSAEFFHGALELLEKDVPLILVKGEGKCRALDERVERFASKITDNLVVIDPKAYALDGIDDEFRWIMAPCVVSTLLVDRLAAHFEKYTGHSLDIRRYYRQFDY
B4: Saccharopine reductase Y99F (Saccharomyces cerevisiae, UniProt P38999); chain MGKNVLLLGSGFVAQPVIDTLAANDDINVTVACRTLANAQALAKPSGSKAISLDVTDDSALDKVLADNDVVISLIPYTFHPNVVKSAIRTKTDVVTSSFISPALRELEPEIVKAGITVMNEIGLDPGIDHLYAVKTIDEVHRAGGKLKSFLSYCGGLPAPEDSDNPLGYKFSWSSRGVLLALRNSAKYWKDGKIETVSSEDLMATAKPYFIYPGYAFVCYPNRDSTLFKDLYHIPEAETVIRGTLRYQGFPEFVKALVDMGMLKDDANEIFSKPIAWNEALKQYLGAKSTSKEDLIASIDSKATWKDDEDRERILSGFAWLGLFSDAKITPRGNALDTLCARLEELMQYEDNERDMVVLQHKFGIEWADGTTETRTSTLVDYGKVGGYSSMAATVGYPVAIATKFVLDGTIKGPGLLAPYSPEINDPIMKELKDKYGIYLKEKTVA
B5: TylM1 H123A (Streptomyces fradiae, UniProt P95748); chain MAHSSATAGPQADYSGEIAELYDLVHQGKGKDYHREAADLAALVRRHSPKAASLLDVACGTGMHLRHLADSFGTVEGLELSADMLAIARRRNPDAVLHHGDMRDFSLGRRFSAVTCMFSSIGALAGQAELDAALERFAAHVLPDGVVVVEPWWFPENFTPGYVAAGTVEAGGTTVTRVSHSSREGEATRIEVHYLVAGPDRGITHHEESHRITLFTREQYERAFTAAGLSVEFMPGGPSGRGLFTGLPGAKGETR
B6: putA E639A (Bradyrhizobium diazoefficiens, UniProt Q89E26); chain MPNIPPPFTAPYAPDDAEIAARLLPASHLSPPQEARIHRTATRLIEAIRKRDDRLGGVEDMLREFALSTKEGLALMVLAEALLRVPDARTADQFIEDKLGEGDFIHHETKSTAFLVNASAWALGLSARVIQPGETPDGTIGRLVKRLGAPAVRTATRQAMRLMGNHFVLGETIEQALERGKPRSGQKTRYSFDMLGEGARTAADARRYFDAYASAIETIGKAAGNHALPDRPGISVKLSALHPRFEAISRARVMVELVPQLLDLAQRAKAHDLNFTVDAEEADRLELSLDVIAATLADPSLKGWDGFGLAIQAYQKRASAVIDYVDALARAHDRKLMVRLVKGAYWDTEIKRAQERGLDGYPVFTRKAMTDLNYVACASKLLALRPRIFPQFATHNALTVATVLEMAEGSSGFEFQRLHGMGEALYEQLAKDHADIAYRTYAPVGSHRDLLAYLVRRLLENGANSSFVAQAADYRVPVPALLQRPADAIVRPQAAAHPRIPLPCDLFAPERRNSRGVEFGARTALDQLLTDVKAETGDLKPIADATPDQAHAAVAAARAGFAGWSRTPAGIRAAALEQAAHLLESRSAHFIALLQREGGKTLDDALSELREAADFCRYYAAQGRKLFGSETAMPGPTGASNALTMRGRGVFVAISPWNFPLAIFLGQVTAALMAGNSVVAKPAEQTPRIAREAVALLHEAGIPKSALYLVTGDGRIGAALTAHPDIAGVVFTGSTEVARSINRALAAKDGPIVPLIAETGGINAMIADATALPEQVADDVVTSAFRSAGQRCSALRLLFVQEDVADRMIEMVAGAARELKIGDPSDVATHVGPVIDVEAKQRLDAHIARMKTEARLHFAGPAPEGCFVAPHIFELTEAGQLTEEVFGPILHVVRYRPENLERVLRAIERTGYGLTLGVHSRIDDSIEAIIDRVQVGNIYVNRNMIGAVVGVQPFGGNGLSGTGPKAGGPHYLARFATEQTVTINTAAAGGNAALLAGEE
B7: MCAT R178Q (Homo sapiens, UniProt Q8IVS2); chain GQGSQVVGMGRGLLNYPRVRELYAAARRVLGYDLLELSLHGPQETLDRTVHCQPAIFVASLAAVEKLHHLQPSVIENCVAAAGFSVGEFAALVFAGAMEFAEGLYAVKIQAEAMQEASEAVPSGMLSVLGQPQSKFNFACLEAREHCKSLGIENPVCEVSNYLFPDCRVISGHQEALRFLQKNSSKFHFRRTRMLPVSGAFHTRLMEPAVEPLTQALKAVDIKKPLVSVYSNVHAHRYRHPGHIHKLLAQQLVSPVKWEQTMHAIYERKKGRGFPQTFEVGPGRQLGAILKSCNMQAWKSYSAVDVL
B8: ALDH4A1 S352A (Homo sapiens, UniProt P30038); chain TGAGLRWKHTSSLKVANEPVLAFTQGSPERDALQKALKDLKGRMEAIPCVVGDEEVWTSDVQYQVSPFNHGHKVAKFCYADKSLLNKAIEAALAARKEWDLKPIADRAQIFLKAADMLSGPRRAEILAKTMVGQGKTVIQAEIDAAAELIDFFRFNAKYAVELEGQQPISVPPSTNSTVYRGLEGFVAAISPFNFTAIGGNLAGAPALMGNVVLWKPSDTAMLASYAVYRILREAGLPPNIIQFVPADGPLFGDTVTSSEHLCGINFTGSVPTFKHLWKQVAQNLDRFHTFPRLAGECGGKNFHFVHRSADVESVVSGTLRSAFEYGGQKCSACARLYVPHSLWPQIKGRLLEEHSRIKVGDPAEDFGTFFSAVIDAKSFARIKKWLEHARSSPSLTILAGGKCDDSVGYFVEPCIVESKDPQEPIMKEEIFGPVLSVYVYPDDKYKETLQLVDSTTSYGLTGAVFSQDKDVVQEATKVLRNAAGNFYINDKSTGSIVGQQPFGGARASGTNDKPGGPHYILRWTSPQVIKETHKPLGDWSYAYMQ
B9: ltaE H83F (Escherichia coli, UniProt P75823); chain MIDLRSDTVTRPSRAMLEAMMAAPVGDDVYGDDPTVNALQDYAAELSGKEAAIFLPTGTQANLVALLSHCERGEEYIVGQAAFNYLFEAGGAAVLGSIQPQPIDAAADGTLPLDKVAMKIKPDDIHFARTKLLSLENTHNGKVLPREYLKEAWEFTRERNLALHVDGARIFNAVVAYGCELKEITQYCDSFTICLSKGLGTPVGSLLVGNRDYIKRAIRWRKMTGGGMRQSGILAAAGIYALKNNVARLQEDHDNAAWMAEQLREAGADVMRQDTNMLFVRVGEENAAALGEYMKARNVLINASPIVRLVTHLDVSREQLAEVAAHWRAFLAR
B10: CDS1 (Homo sapiens, UniProt Q92903); chain MLELRHRGSCPGPREAVSPPHREGEAAGGDHETESTSDKETDIDDRYGDLDSRTDSDIPEIPPSSDRTPEILKKALSGLSSRWKNWWIRGILTLTMISLFFLIIYMGSFMLMLLVLGIQVKCFHEIITIGYRVYHSYDLPWFRTLSWYFLLCVNYFFYGETVADYFATFVQREEQLQFLIRYHRFISFALYLAGFCMFVLSLVKKHYRLQFYMFAWTHVTLLITVTQSHLVIQNLFEGMIWFLVPISSVICNDITAYLFGFFFGRTPLIKLSPKKTWEGFIGGFFSTVVFGFIAAYVLSKYQYFVCPVEYRSDVNSFVTECEPSELFQLQTYSLPPFLKAVLRQERVSLYPFQIHSIALSTFASLIGPFGGFFASGFKRAFKIKDFANTIPGHGGIMDRFDCQYLMATFVHVYITSFIRGPNPSKVLQQLLVLQPEQQLNIYKTLKTHLIEKGILQPTLKV
UniProt Q99042, sequence (whole entry, looked up): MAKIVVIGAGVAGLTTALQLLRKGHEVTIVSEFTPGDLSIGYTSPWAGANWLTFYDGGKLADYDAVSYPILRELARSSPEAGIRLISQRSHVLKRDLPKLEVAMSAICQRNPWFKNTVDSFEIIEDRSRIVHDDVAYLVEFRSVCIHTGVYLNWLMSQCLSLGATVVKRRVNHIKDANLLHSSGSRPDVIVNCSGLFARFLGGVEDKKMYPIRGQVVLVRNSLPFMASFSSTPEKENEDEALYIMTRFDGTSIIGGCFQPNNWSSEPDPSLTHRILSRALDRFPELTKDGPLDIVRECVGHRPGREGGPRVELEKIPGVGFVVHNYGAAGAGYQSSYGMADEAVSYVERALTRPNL
UniProt Q9UBT6, sequence (whole entry, looked up): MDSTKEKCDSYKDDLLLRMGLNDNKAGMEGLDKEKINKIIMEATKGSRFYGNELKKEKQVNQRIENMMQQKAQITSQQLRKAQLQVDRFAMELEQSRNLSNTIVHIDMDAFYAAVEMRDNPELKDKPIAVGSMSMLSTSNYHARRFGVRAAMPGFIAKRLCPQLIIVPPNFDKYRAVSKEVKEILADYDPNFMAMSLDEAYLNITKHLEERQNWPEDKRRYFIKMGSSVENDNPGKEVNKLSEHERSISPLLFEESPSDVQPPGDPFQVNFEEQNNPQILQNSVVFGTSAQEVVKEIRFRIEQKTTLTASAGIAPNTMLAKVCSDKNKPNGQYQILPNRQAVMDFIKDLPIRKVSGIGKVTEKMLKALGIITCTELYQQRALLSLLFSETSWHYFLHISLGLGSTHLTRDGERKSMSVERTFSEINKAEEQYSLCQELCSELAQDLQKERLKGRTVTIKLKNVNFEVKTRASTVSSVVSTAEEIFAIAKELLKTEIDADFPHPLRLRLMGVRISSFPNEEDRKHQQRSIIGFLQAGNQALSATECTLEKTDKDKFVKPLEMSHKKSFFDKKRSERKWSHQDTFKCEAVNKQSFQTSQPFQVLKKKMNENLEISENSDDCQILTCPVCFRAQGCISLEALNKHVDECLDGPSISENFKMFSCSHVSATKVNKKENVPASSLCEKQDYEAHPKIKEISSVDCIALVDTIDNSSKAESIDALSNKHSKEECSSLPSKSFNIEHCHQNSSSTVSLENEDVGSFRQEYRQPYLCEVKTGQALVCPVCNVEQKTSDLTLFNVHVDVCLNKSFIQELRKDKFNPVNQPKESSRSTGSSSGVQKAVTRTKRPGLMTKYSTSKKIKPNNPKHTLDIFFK

Molecule = B1 (sacB Y421F); substrate = OC[C@H]1O[C@@](CO)(O[C@H]2O[C@H](CO)[C@@H](O)[C@H](O)[C@H]2O)[C@@H](O)[C@@H]1O; pH = pH 6.6; kcat = 17.5 ± 1.6 s⁻¹
Molecule = POLK (Homo sapiens, UniProt Q9UBT6); substrate = Nc1ncnc2c1ncn2[C@H]1C[C@H](O)[C@@H](COP(=O)(O)OP(=O)(O)OP(=O)(O)O)O1; pH = pH 7.5; temperature = 23 °C; setting = MgCl2 5 mM; together with = 8-oxoG template; kcat = 0.012 ± 0.002 s⁻¹
Molecule = B2 (enzyme); substrate = O=P(O)(O)OC[C@H](O)CO; pH = pH 8; temperature = 37 °C; setting = apparent; kcat = 1.51 s⁻¹
Molecule = B3 (STM4540); substrate = N[C@@H](CCCCNCC(=O)[C@@H](O)[C@H](O)[C@H](O)COP(=O)(O)O)C(=O)O; pH = pH 7.5; temperature = 37 °C; kcat = 0.967 ± 0.0383 s⁻¹
Molecule = DAO1 (Trigonopsis variabilis, UniProt Q99042); substrate = Nc1ccc2nc3ccc(N)cc3[s+]c2c1; pH = pH 8; temperature = 22 °C; setting = apparent; kcat = 0.161 ± 0.004 s⁻¹
Molecule = B4 (Saccharopine reductase Y99F); substrate = NC(=O)c1ccc[n+]([C@@H]2O[C@H](COP(=O)(O)OP(=O)(O)OC[C@H]3O[C@@H](n4cnc5c(N)ncnc54)[C@H](OP(=O)(O)O)[C@@H]3O)[C@@H](O)[C@H]2O)c1; pH = pH 9; temperature = 25 °C; together with = saccharopine; kcat = 0.29 ± 0.01 s⁻¹
Molecule = B5 (TylM1 H123A); substrate = Cc1cn([C@H]2C[C@H](O)[C@@H](COP(=O)(O)OP(=O)(O)O[C@H]3O[C@H](C)[C@@H](O)[C@H](N)[C@H]3O)O2)c(=O)[nH]c1=O; temperature = 25 °C; together with = SAM; kcat = 0.046 ± 0.001 s⁻¹
Molecule = protein (UniProt M4ZR24); substrate = NC[C@H]1O[C@@H](n2ccc(=O)[nH]c2=O)C[C@@H]1O; setting = phosphorolysis, single substrate; together with = phosphate; kcat = 0.267 ± 0.0333 s⁻¹
Molecule = B6 (putA E639A); substrate = O=C(O)[C@@H]1CCCN1; pH = pH 8; temperature = 23 °C; kcat = 1.95 ± 0.24 s⁻¹
Molecule = sacB (Priestia megaterium, UniProt D5DC07); substrate = OC[C@H]1O[C@@](CO)(O[C@H]2O[C@H](CO)[C@@H](O)[C@H](O)[C@H]2O)[C@@H](O)[C@@H]1O; pH = pH 6.9; kcat = 248 ± 6.9 s⁻¹
Molecule = B7 (MCAT R178Q); substrate = CC(C)(COP(=O)(O)OP(=O)(O)OC[C@H]1O[C@@H](n2cnc3c(N)ncnc32)[C@H](O)[C@@H]1OP(=O)(O)O)[C@@H](O)C(=O)NCCC(=O)NCCSC(=O)CC(=O)O; pH = pH 6.8; temperature = 20 °C; setting = labelled substrate; together with = holo-ACP 20 µM; kcat = 0.00217 ± 0.000167 s⁻¹
Molecule = B8 (ALDH4A1 S352A); substrate = NC(=O)c1ccc[n+]([C@@H]2O[C@H](COP(=O)(O)OP(=O)(O)OC[C@H]3O[C@@H](n4cnc5c(N)ncnc54)[C@H](O)[C@@H]3O)[C@@H](O)[C@H]2O)c1; pH = pH 7; temperature = 20 °C; setting = sodium phosphate 0.1 M, cofactor varied; together with = L-P5C; kcat = 5 s⁻¹
Molecule = B9 (ltaE H83F); substrate = C[C@H](O)[C@H](N)C(=O)O; pH = pH 7; temperature = 30 °C; setting = potassium phosphate 20 mM, retro-aldol cleavage; together with = PLP 500 µM; kcat = 0.0617 s⁻¹
Molecule = B10 (CDS1); substrate = CCCCC/C=C\C/C=C\C/C=C\C/C=C\CCCC(=O)O[C@H](COC(=O)CCCCCCCCCCCCCCCCC)COP(=O)(O)O; pH = pH 8; setting = not purified; kcat = 2.9 ± 0.3 s⁻¹

Excerpt of the above:
Molecule = B5 (TylM1 H123A); substrate = Cc1cn([C@H]2C[C@H](O)[C@@H](COP(=O)(O)OP(=O)(O)O[C@H]3O[C@H](C)[C@@H](O)[C@H](N)[C@H]3O)O2)c(=O)[nH]c1=O; temperature = 25 °C; together with = SAM; kcat = 0.046 ± 0.001 s⁻¹
Molecule = B6 (putA E639A); substrate = O=C(O)[C@@H]1CCCN1; pH = pH 8; temperature = 23 °C; kcat = 1.95 ± 0.24 s⁻¹
